Experimental data pooled from the literature.

Structure (SMILES) = CC(C)c1ccc(Cn2ccc([C@H](C)[C@](O)(Cn3cnnn3)c3ccc(F)cc3F)n2)cc1; organism = Candidozyma auris; assay = microbial growth; system = D12; setting = 24 h, drug-resistant strain, clinical isolate; MIC = 1 µg/mL
Structure (SMILES) = CN(Cc1cc(C2CC2)on1)C(=O)c1cccc(-c2ccc3c(c2)CCO3)c1; organism = Cryptococcus neoformans; assay = broth microdilution; system = H99, RPMI-MOPS; setting = 37 °C; MIC = 32 µg/mL
Structure (SMILES) = CC[C@@H](C)[C@@H](NC(=O)[C@@H](C)NC(=O)[C@@H](CCCCN)NC(=O)[C@@H](CC(C)C)NC(=O)[C@@H](C)NC(=O)[C@H](NC(=O)[C@@H](Cc1c[nH]cn1)NC(=O)[C@@H](CC(C)C)NC(=O)[C@H](NC(=O)[C@H](NC(=O)[C@@H](CCCCN)NC(=O)[C@@H](CCCCN)NC(=O)[C@@H](C)NC(=O)[C@@H](CO)NC(=O)[C@@H](CCCCN)NC(=O)[C@@H](Cc1ccccc1)NC(=O)[C@H](NC(=O)[C@@H](CCCCN)NC(=O)[C@@H](CC(C)C)NC(=O)[C@@H](Cc1ccccc1)NC(=O)[C@@H](CO)NC(=O)[C@@H](CCCCN)NC(=O)[C@@H](Cc1c[nH]c2ccccc12)NC(=O)[C@@H](CCCCN)NC(C)=O)[C@H](C)O)[C@H](C)O)C(C)C)[C@H](C)O)C(=O)N[C@H](CO)C(=O)N[C@H](CO)C(N)=O; organism = Acinetobacter baumannii; system = 759, Mueller-Hinton broth; setting = 24 h, 37 °C; MIC = 1.5 µM
Structure (SMILES) = C[N+]1=C2C(c3ccc([N+](=O)[O-])cc3)=[N+]([O-])c3ccccc3N2CCC1; organism = Clostridium sporogenes; assay = microbial growth; system = ATCC3584; MIC = 0.125 µg/mL
Structure (SMILES) = N#Cc1ccc(-c2c[nH]c(CNC(=O)Nc3ncc(Sc4ccccn4)s3)n2)cc1; organism = Bifidobacterium breve; assay = broth microdilution; system = ATCC 11863; setting = together with: verapamil 50 µg/mL; MIC = > 128 µM
Structure (SMILES) = C=C(NC(=O)C(=C)NC(=O)c1csc(C2=NC3c4csc(n4)C4NC(=O)c5csc(n5)C(C(C)(O)C(C)O)NC(=O)C5CSC(=N5)C(=CC)NC(=O)C(C(C)O)NC(=O)c5csc(n5)C3(CC2)NC(=O)C(C)NC(=O)C(=C)NC(=O)C(C(C)CC)NC2C=Cc3c(C(C)O)cc(nc3C2O)C(=O)OC4C)n1)C(N)=O (centres unmarked); organism = Bacillus sp.; assay = broth microdilution; system = ATCC 27859; setting = 18 h, 37 °C; MIC = > 5 µg/mL
Structure (SMILES) = OB(O)c1cnn(-c2cc(Cl)ncn2)c1; organism = Citrobacter freundii; assay = bacterial growth; system = AmpC-overproducing clinical isolate; setting = cefotaxime alone; MIC = 2 µg/mL
Structure (SMILES) = C[C@@H](c1ccn(Cc2ccc(I)cc2)n1)[C@](O)(Cn1cnnn1)c1ccc(F)cc1F; organism = Candidozyma auris; assay = microbial growth; system = D12; setting = 24 h, drug-resistant strain, clinical isolate; MIC = 0.125 µg/mL
Structure (SMILES) = [O-][N+]1=C(Cc2ccccc2)C2=NCCCN2c2ccccc21; organism = Prevotella intermedia/nigrescens; system = ATCC 25611; MIC = 1 µg/mL
Structure (SMILES) = CC[C@H](C)[C@H](NC(=O)CNC(=O)[C@H](CCCCN)NC(=O)[C@H](C)NC(=O)[C@H](CCC(=O)O)NC(=O)[C@H](Cc1ccccc1)NC(=O)[C@H](CO)NC(=O)[C@H](CC(C)C)NC(=O)[C@@H](NC(=O)[C@H](CC(=O)O)NC(=O)[C@H](C)NC(=O)[C@@H](NC(=O)[C@@H](N)C(C)C)[C@@H](C)O)C(C)C)C(=O)N[C@@H](C)C(=O)N[C@H](C(=O)N[C@@H](CC(N)=O)C(=O)N[C@@H](Cc1c[nH]cn1)C(=O)N[C@@H](CO)C(=O)N[C@@H](C)C(=O)N[C@H]1CSSC[C@@H]2NC(=O)[C@H](C(C)C)NC(=O)CNC(=O)[C@H](CC(N)=O)NC(=O)[C@H](CCC(N)=O)NC(=O)[C@H](C)NC(=O)[C@H](CO)NC(=O)CNC(=O)CNC(=O)[C@H](CCCCN)NC(=O)[C@H](CCCCN)NC(=O)[C@H](CCCNC(=N)N)NC(=O)[C@H](CC(C)C)NC(=O)[C@H](C)NC(=O)[C@H]([C@@H](C)CC)NC(=O)[C@H](CSSC[C@@H](C(=O)N[C@@H](CCCNC(=N)N)C(=O)N[C@@H](CC(N)=O)C(=O)O)NC(=O)[C@H](C(C)C)NC2=O)NC(=O)[C@H](Cc2c[nH]cn2)NC(=O)[C@H](CC(C)C)NC(=O)[C@H](C)NC1=O)C(C)C; organism = Trichosporon beigelii; assay = broth microdilution; system = KCTC 7707; setting = 28 °C; MIC = 25 µM
Structure (SMILES) = CC[C@H](C)[C@H](NC(=O)[C@H](CCCCN)NC(=O)[C@H](CC(N)=O)NC(=O)[C@H](CC(C)C)NC(=O)[C@H](Cc1ccccc1)NC(=O)[C@H](CCCCN)NC(=O)[C@H](CCCCNC(=N)N)NC(=O)[C@H](CC(C)C)NC(=O)[C@H](CC(C)C)NC(=O)[C@H](CCCCN)NC(=O)[C@H](CCCCNC(=N)N)NC(=O)[C@H](CC(C)C)NC(=O)CNC(C)=O)C(=O)N[C@@H](CCCCN)C(=O)N[C@@H](CCCCNC(=N)N)C(N)=O; organism = Citrobacter freundii; assay = bacterial growth, broth microdilution; system = multidrug-resistant; MIC = 3.12 µM
Structure (SMILES) = C=CCCC[C@@H]1NC(=O)[C@H](CC(C)C)NC(=O)[C@H](C)NC(=O)[C@H](NC(=O)[C@H](CO)NC(=O)[C@@H](CCCCN)NC(=O)[C@@H](CCCC=C)NC(=O)[C@@H](N)Cc2ccccc2)[C@H](C)OC1=O; organism = Bacillus subtilis Staphylococcus epidermidis; system = ATCC 14990; setting = tested as TFA salt; MIC = 2 µg/mL
Structure (SMILES) = CO[C@H]1CC(O)=C2C(=O)c3c(cc(C)c(-c4c(C)cc5c(c4O)C(=O)C4=C(O)C[C@H](OC)[C@@H](O)[C@]4(C)O5)c3O)O[C@@]2(C)[C@@H]1O; organism = Alternaria brassicicola; assay = microbial growth; system = BCC; MIC = 5.1 µM
Structure (SMILES) = CN[C@@H]1[C@H](O)[C@H](NC)[C@H]2O[C@]3(O)[C@H](O[C@@H]2[C@H]1O)O[C@H](C)C[C@@]3(O)CNCc1ccc(F)cc1; organism = Streptococcus pneumoniae; system = R6 drug sensitive; MIC = 3 µg/mL
Structure (SMILES) = CC[C@H](C)[C@H](NC(=O)[C@H](CCCN)NC(=O)[C@H](CC(N)=O)NC(=O)[C@H](CC(C)C)NC(=O)[C@H](Cc1ccccc1)NC(=O)[C@H](CCCN)NC(=O)[C@H](CCCCNC(=N)N)NC(=O)[C@H](CC(C)C)NC(=O)[C@H](CC(C)C)NC(=O)[C@H](CCCN)NC(=O)[C@H](CCCCNC(=N)N)NC(=O)[C@H](CC(C)C)NC(=O)CNC(C)=O)C(=O)N[C@@H](CCCN)C(=O)N[C@@H](CCCCNC(=N)N)C(N)=O; organism = Citrobacter freundii; assay = bacterial growth, broth microdilution; system = multidrug-resistant; MIC = 3.12 µM
Structure (SMILES) = [O-][N+]1=C(c2ccccc2)C2=NCCN2c2ccccc21; organism = Clostridium sporogenes; assay = microbial growth; system = ATCC3584; MIC = 0.25 µg/mL
Structure (SMILES) = CN[C@@H]1[C@H](O)[C@H](NC)[C@H]2O[C@]3(O)[C@H](O[C@@H]2[C@H]1O)O[C@H](C)C[C@@]3(O)CNCc1ccc(OC(F)(F)F)cc1; organism = Streptococcus pneumoniae; system = ATCC 700904 drug resistant; MIC = 13 µg/mL
